Results from different studies.
Each line is one published result; not all experiments were run side by side. Values joined by “and” are separate records of one study, mostly repeats; a detail may differ. ± marks the error that the study gave.
Genome polyprotein 3C protease: Genome polyprotein, 3C protease (rhinovirus B14, UniProt P03303)
UniProt P03303, sequence (whole entry, looked up): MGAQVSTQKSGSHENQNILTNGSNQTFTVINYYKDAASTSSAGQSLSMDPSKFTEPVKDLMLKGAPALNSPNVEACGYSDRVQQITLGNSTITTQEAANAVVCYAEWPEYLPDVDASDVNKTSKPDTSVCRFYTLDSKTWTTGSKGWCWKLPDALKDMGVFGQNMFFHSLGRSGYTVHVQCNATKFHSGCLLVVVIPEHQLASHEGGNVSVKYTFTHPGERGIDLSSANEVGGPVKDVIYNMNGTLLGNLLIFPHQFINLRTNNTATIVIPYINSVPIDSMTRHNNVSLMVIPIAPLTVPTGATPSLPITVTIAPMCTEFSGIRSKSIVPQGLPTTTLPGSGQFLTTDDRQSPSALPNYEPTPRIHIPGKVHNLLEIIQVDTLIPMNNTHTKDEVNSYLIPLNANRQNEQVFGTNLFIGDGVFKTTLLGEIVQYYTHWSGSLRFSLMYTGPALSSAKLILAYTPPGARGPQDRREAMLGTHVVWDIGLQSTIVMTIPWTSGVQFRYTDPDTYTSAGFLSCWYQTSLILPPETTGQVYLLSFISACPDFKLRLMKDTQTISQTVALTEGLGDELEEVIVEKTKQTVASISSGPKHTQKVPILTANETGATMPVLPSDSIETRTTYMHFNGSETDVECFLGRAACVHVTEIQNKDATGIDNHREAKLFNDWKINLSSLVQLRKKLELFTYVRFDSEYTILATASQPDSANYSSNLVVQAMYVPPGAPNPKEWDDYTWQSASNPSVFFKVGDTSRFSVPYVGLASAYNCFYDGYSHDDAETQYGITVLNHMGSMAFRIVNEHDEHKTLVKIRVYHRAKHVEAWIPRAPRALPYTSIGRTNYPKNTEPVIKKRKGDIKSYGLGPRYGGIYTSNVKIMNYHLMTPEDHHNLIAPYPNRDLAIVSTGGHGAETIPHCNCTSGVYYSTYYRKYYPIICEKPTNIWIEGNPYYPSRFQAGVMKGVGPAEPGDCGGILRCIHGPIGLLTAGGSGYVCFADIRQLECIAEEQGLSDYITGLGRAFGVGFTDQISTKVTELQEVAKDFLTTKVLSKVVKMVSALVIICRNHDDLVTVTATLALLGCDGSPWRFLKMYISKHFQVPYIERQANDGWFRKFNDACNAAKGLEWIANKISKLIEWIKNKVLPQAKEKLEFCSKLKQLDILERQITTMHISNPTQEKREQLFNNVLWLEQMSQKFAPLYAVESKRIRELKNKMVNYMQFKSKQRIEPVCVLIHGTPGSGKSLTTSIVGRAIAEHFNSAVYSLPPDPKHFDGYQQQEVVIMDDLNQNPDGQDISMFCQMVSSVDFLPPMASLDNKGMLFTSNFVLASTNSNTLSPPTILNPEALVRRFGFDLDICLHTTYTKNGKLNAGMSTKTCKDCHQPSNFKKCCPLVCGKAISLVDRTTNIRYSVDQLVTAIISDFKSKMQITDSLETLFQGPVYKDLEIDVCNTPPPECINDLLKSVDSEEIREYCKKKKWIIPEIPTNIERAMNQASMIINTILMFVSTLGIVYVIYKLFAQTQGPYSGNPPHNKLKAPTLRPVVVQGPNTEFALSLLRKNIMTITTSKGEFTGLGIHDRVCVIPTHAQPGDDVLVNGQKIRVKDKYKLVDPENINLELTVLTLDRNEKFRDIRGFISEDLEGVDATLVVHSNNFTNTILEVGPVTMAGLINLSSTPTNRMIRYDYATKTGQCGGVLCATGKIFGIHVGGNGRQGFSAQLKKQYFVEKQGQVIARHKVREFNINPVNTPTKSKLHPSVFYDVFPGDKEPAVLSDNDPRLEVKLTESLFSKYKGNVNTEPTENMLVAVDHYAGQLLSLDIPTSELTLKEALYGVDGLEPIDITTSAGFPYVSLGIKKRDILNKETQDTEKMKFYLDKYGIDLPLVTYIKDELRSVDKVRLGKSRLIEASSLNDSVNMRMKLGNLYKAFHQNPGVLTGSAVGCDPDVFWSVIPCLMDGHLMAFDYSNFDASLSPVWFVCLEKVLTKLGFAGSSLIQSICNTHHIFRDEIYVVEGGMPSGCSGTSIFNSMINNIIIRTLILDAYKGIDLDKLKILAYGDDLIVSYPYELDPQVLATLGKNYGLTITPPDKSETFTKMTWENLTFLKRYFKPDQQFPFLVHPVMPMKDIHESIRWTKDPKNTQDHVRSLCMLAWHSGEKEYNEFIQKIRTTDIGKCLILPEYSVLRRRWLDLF
accessory gene regulator protein C: accessory gene regulator protein C (Staphylococcus aureus, UniProt O33587)
Phospholipase D2: Phospholipase D2 (Homo sapiens, UniProt O14939)
UniProt O14939, sequence (whole entry, looked up): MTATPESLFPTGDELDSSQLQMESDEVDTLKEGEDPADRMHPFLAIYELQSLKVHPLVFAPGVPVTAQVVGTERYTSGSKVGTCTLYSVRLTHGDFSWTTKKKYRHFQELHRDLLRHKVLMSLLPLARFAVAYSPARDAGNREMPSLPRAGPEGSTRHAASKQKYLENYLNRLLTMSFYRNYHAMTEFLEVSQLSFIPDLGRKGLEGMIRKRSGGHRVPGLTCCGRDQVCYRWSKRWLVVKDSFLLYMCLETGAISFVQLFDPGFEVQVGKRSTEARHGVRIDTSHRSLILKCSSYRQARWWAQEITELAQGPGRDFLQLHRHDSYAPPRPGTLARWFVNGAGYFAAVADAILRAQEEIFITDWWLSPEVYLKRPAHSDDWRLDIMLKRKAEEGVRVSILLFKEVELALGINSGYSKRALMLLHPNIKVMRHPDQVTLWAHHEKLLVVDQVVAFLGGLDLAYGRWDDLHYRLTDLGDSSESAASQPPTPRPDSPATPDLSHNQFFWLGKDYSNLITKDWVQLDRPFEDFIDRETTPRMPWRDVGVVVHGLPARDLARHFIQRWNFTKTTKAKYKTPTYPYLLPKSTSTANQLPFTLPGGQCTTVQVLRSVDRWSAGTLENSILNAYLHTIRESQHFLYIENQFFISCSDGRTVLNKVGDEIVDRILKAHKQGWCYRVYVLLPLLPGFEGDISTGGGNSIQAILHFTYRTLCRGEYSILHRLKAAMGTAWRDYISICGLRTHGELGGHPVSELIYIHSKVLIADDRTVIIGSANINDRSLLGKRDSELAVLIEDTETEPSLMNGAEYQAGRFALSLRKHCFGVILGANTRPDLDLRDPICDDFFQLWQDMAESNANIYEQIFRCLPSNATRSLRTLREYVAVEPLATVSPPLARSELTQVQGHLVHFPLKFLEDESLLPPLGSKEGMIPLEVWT
UniProt P35499, sequence (whole entry, looked up): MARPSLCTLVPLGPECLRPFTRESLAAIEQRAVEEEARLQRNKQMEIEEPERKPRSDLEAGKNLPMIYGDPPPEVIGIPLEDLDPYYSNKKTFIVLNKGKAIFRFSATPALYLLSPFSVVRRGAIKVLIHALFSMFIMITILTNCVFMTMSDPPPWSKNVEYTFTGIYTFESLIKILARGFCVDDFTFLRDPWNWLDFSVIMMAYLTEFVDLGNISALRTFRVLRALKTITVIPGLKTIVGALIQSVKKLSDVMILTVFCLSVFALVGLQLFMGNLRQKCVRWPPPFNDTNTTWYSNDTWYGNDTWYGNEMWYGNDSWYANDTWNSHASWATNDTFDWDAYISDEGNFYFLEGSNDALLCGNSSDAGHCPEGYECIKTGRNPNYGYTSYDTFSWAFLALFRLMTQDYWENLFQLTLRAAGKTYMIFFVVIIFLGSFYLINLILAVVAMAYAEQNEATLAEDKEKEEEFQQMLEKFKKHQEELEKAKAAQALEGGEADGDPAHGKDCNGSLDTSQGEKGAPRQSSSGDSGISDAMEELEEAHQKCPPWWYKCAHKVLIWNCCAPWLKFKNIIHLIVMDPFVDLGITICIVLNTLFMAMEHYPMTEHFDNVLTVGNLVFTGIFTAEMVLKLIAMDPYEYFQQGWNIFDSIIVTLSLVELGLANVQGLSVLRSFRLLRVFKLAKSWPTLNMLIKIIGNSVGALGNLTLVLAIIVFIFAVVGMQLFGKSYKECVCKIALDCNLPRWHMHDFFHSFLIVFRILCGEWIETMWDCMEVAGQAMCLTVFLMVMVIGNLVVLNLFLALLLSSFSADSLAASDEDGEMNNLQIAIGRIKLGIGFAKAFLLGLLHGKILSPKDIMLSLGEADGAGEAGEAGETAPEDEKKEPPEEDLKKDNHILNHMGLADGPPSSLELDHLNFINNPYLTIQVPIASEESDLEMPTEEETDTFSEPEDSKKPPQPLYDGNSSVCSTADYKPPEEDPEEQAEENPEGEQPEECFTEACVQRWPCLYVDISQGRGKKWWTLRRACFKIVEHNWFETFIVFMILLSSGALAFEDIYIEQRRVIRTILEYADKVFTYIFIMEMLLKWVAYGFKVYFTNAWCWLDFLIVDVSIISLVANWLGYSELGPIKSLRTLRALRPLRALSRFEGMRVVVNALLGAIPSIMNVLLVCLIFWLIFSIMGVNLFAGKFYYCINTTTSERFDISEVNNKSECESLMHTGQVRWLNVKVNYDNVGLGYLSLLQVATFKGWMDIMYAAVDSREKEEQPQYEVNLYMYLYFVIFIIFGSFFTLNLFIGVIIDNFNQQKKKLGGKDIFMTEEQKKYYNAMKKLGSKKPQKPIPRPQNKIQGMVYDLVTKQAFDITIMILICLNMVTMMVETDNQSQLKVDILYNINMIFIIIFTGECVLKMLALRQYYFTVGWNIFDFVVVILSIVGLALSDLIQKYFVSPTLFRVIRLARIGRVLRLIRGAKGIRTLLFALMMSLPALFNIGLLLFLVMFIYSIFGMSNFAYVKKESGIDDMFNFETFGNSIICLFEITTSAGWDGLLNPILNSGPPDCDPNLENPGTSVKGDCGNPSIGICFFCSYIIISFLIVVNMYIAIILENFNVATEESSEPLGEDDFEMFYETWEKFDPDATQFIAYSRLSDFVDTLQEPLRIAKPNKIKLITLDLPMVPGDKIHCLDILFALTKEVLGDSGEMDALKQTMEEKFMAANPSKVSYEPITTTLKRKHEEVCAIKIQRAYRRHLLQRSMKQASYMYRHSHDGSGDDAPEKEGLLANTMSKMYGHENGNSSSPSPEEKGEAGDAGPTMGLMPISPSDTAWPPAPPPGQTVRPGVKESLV

CC(=O)N[C@@H](Cc1ccccc1)C(=O)N[C@@H](CC(C)C)C(=O)N[C@H](C(=O)N[C@@H](CC(=O)O)C(=O)CCl)[C@@H](C)O
IC50 (Caspase-7 (CASP7, Homo sapiens, UniProt P55210); enzyme activity, inhibitor, fluorescence): 53.5 µM

CN(C)c1ccc(/C=C/C(=O)c2ccc(N3CCNCC3)cc2)cc1
IC50 (Beta-secretase 1 (BACE1, Homo sapiens, UniProt P56817); enzyme activity, inhibitor, fluorescence; with preincubation): 11.6 µM

Fc1cccc(COc2ccc(/C=N/NC(=S)Nc3ccccc3)cc2)c1
IC50 (Amine oxidase [flavin-containing] B (MAOB, Homo sapiens, UniProt P27338); enzyme activity, inhibitor, absorbance): 12.2 µM

CC(C)C[C@H](NC(=O)[C@@H](NC(=O)[C@@H]1CCCN1C(=O)[C@@H](Cc1ccc(O)cc1)NC(=O)[C@@H](CO)NC(=O)C(C)C(O)CCCCCC(O)Cc1ccccc1)[C@@H](C)O)[C@H](O)CC(=O)N[C@H](CO)Cc1ccc(O)cc1 (some centres unmarked)
IC50 (Cathepsin D (CTSD, Homo sapiens, UniProt P07339); enzyme activity, fluorogenic substrate; 120 min, pH 3.5): 21 µM

c1ccc(-c2csc(Nc3nc4cc5c(cc4s3)OCO5)n2)nc1
IC50 (CTP synthase 2 (CTPS2, Homo sapiens, UniProt Q9NRF8)): > 100 µM

O=C(O[C@@H]1Cc2c(O)cc(O)cc2O[C@@H]1c1cc(O)c(O)c(O)c1)c1cc(O)c(O)c(O)c1
IC50 (mRNA cap guanine-N(7) methyltransferase, with RAM (RNMT, Homo sapiens, UniProt O43148); N7-methyltransferase activity, inhibitor, Py-FLINT; RNMT-RAM complex, together with: SAM 20 µM): 3.61 ± 0.7 µM

COc1ccccc1-c1nc2sc3c(c2c(=O)o1)CCC3
IC50 (Genome polyprotein 3C protease; 3C protease activity, SAMDI-MS; human rhinovirus): 3.94 µM

CC(C)[C@H]1NC(=O)[C@H](CO)NC(=O)c2cc3cc(c2)C(=O)NC[C@H](NC(=O)[C@H](Cc2c[nH]cn2)NC(=O)[C@H](Cc2ccc(C(F)(F)P(=O)(O)O)cc2)NC(=O)[C@@H]2CCCN2C1=O)C(=O)N[C@@H](Cc1ccccc1)C(=O)N[C@@H](Cc1ccc2ccccc2c1)C(=O)N[C@@H](CCCNC(=N)N)C(=O)N[C@@H](CCCNC(=N)N)C(=O)N[C@@H](CCCNC(=N)N)C(=O)N[C@@H](CCCNC(=N)N)C(=O)N[C@H](C(=O)N[C@@H](CCCCN)C(N)=O)CNC3=O
IC50 (Tyrosine-protein phosphatase non-receptor type 1 (PTPN1, Homo sapiens, UniProt P18031); enzyme activity, inhibitor, absorbance): 0.03 µM

O=C(O)/C=C/c1ccc(O)cc1
IC50 (alpha-glucosidase; inhibitor): 96 µg/mL and 108 µg/mL

C1CCc2c(c(N3CCOCC3)nc3sc4c(N5CCNCC5)nnnc4c23)C1
IC50 (Beta-glucuronidase (Streptococcus agalactiae serotype V, UniProt Q8E0N2); Streptococcus agalactiae): 0.6 ± 0.2 µM

CCC[C@H](NC(=O)[C@H](CC(C)C)NC(=O)OCc1ccccc1)C(=O)C(=O)NCc1ccccn1
IC50 (Genome polyprotein 3C protease; enzyme activity, inhibitor, SAMDI-MS; human rhinovirus; 30 min preincubation, together with: substrate 10 µM): > 100 µM

O=C(Nc1ccccc1)c1ccccc1O
IC50 (Histone deacetylase 4 (HDAC4, Homo sapiens, UniProt P56524); enzyme activity, inhibitor, fluorescence): > 10 µM

CC[C@H](C)[C@H](N)C(=O)N[C@@H](CO)C(=O)N[C@@H](CCC(N)=O)C(=O)N[C@H](C(=O)N[C@@H](CC(N)=O)C(=O)N[C@@H](CCC(=O)O)C(=O)N[C@@H](CCCCN)C(=O)N[C@H](C(=O)N[C@@H](CC(N)=O)C(=O)N[C@@H](CCC(N)=O)C(=O)N[C@@H](CO)C(=O)N[C@@H](CC(C)C)C(=O)N[C@@H](C)C(=O)N[C@@H](Cc1ccccc1)C(=O)N[C@H](C(=O)N[C@@H](CCCNC(=N)N)C(=O)N[C@@H](CCCCN)C(=O)N[C@@H](CO)C(=O)N[C@@H](CC(=O)O)C(=O)N[C@@H](CCC(=O)O)C(=O)N(CCOC)CC(N)=O)[C@@H](C)CC)[C@@H](C)CC)C(C)C
IC50 (hRSV fusion protein 5-helix bundle; binding, fluorescence polarization; together with: Fl-C35 tracer 5 nM): > 200 µM

C[C@]1(COC(=O)Cc2ccc(O)c(O)c2)[C@H](C(=O)O)N2C(=O)/C(=C/c3ccccn3)[C@H]2S1(=O)=O
IC50 (Beta-lactamase OXA-48 (OXA-48, Klebsiella pneumoniae, UniProt Q6XEC0); inhibitor; together with: nitrocefin): 0.003 ± 0.0003 µM

O=C(NCCCCCn1ccc2ccccc21)Oc1ccccc1
IC50 (Fatty-acid amide hydrolase 1 (Faah, Rattus norvegicus, UniProt P97612); rat brain homogenate; 60 min, 37 °C): 0.05 µM

N#Cc1cn([C@@H]2O[C@H](CSCC[C@H](N)C(=O)O)[C@@H](O)[C@H]2O)c2ncnc(N)c12
IC50 (Histone-arginine methyltransferase CARM1 (CARM1, Homo sapiens, UniProt Q86X55); enzyme activity, inhibitor, radiometric): 1 µM

CNC(=O)C1CCN(c2ccccc2NC(=O)c2ccc(-c3cc(O)ccc3C)c(C)n2)CC1
IC50 (Ephrin type-A receptor 5 (EPHA5, Homo sapiens, UniProt P54756); target engagement in cells, BRET): 0.003 µM

Cc1cc(S(=O)(=O)Nc2ncccn2)c(F)cc1N(C)C1CCN([C@H](C)c2ccccc2)CC1
IC50 (Sodium channel protein type 4 subunit alpha (SCN4A, Homo sapiens, UniProt P35499); sodium current, inhibitor, automated patch clamp; inactivated state protocol): 153 µM

CCOc1ccccc1/C=C\c1nc(O)c([N+](=O)[O-])c(=O)[nH]1
IC50 (Prostatic acid phosphatase (ACP3, Homo sapiens, UniProt P15309); enzyme activity, inhibitor): 13.8 µM

CC[C@H](C)[C@H](NC(=O)[C@@H](N)Cc1ccc(O)cc1)C(=O)N[C@@H](Cc1ccccc1)C(=O)N[C@@H](CC(N)=O)C(=O)N[C@@H](CC(C)C)C(=O)O
IC50 (Mu-type opioid receptor (OPRM1, Homo sapiens, UniProt P35372); binding, radioligand displacement; MCF7; together with: [3H]DAMGO): 0.000143 ± 2e-15 µM

O=C(CCl)c1ccc(F)cc1
IC50 (Fosb/Jund, ΔFosB isoform (Mus musculus, UniProt P13346+P15066); ΔFOSB/JUND DNA binding, fluorescence polarization; 15 min, together with: TMR-cdk5 oligonucleotide): > 200 µM

COc1ccc(S(=O)(=O)n2nc(OC(=O)c3ccccc3)cc2N)cc1
IC50 (Genome polyprotein, NS2B-NS3 protease (dengue virus type 2, UniProt P29990); enzyme activity, inhibitor; 30 min preincubation, together with: 20 µM Bz-nKRR-AMC): 8.5 ± 0.3 µM

CC[C@H](C)[C@H](N)C(=O)N[C@@H](CC(N)=O)C(=O)N[C@H]1CSC(=O)[C@H](CC(C)C)NC(=O)[C@H](CC(C)C)NC(=O)[C@H](Cc2ccccc2)NC(=O)[C@H](CC(N)=O)NC1=O
IC50 (accessory gene regulator protein C): 0.000319 µM

C1CCN(c2nnnc3c2sc2nc(N4CCOCC4)c4c(c23)CCCC4)CC1
IC50 (Beta-glucuronidase (uidA, Escherichia coli, UniProt P05804); enzyme activity, inhibitor): > 100 µM

CC(=O)N[C@H]1CSC(=O)[C@H](Cc2ccccc2)NC(=O)[C@H](CC(C)C)NC(=O)[C@H](CO)NC(=O)[C@H](CO)NC1=O
IC50 (accessory gene regulator protein C): 0.0775 µM

CC(C)C[C@H](NC(=O)[C@H](CCC(=O)O)NC(=O)[C@@H](N)CS)C(=O)N[C@@H](CC(N)=O)C(=O)O
IC50 (PPO3 (Agaricus bisporus, UniProt C7FF04); enzyme activity, inhibitor): 233 µM

CC(C)C[C@H]1CNC(=O)N2C[C@H](C[C@H]2C(N)=O)SCC(=O)NCCNC(=O)CSC[C@H](NC(=O)[C@H](Cc2ccccc2)NC(=O)[C@H](CO)NC(=O)[C@@H](N)[C@@H](C)O)C(=O)N[C@@H](CCC(=O)O)C(=O)N[C@@H](Cc2ccc(O)cc2)C(=O)N[C@@H](Cc2c[nH]c3ccccc23)C(=O)N[C@@H](C)C(=O)N[C@@H](CC(C)C)CNC(=O)N1
IC50 (Protein Mdm4, with p53 (MDM4, Homo sapiens, UniProt O15151); inhibitor, HTRF): 0.119 ± 0.031 µM

c1cc2c(s1)CCOC21CCN(Cc2ccc3c(c2)OCCO3)CC1
IC50 (Cytochrome P450 3A4 (CYP3A4, Homo sapiens, UniProt P08684); enzyme activity, inhibitor; together with: VR substrate): > 50 µM

CC(C)[C@H](NC(=O)c1ccc(CCc2nc3c(c(=O)[nH]2)CCC3)cc1)C(=O)NC1CNC1
IC50 (Matrix metalloproteinase-14 (MMP14, Homo sapiens, UniProt P50281); enzyme activity, inhibitor): > 5 µM

C=C(C)[C@]12C[C@@H](C)[C@@]34O[C@](Cc5ccccc5)(O[C@@H]1[C@@H]3C=C(COC(=O)Cc1cc(I)c(O)c(OC)c1)C[C@]1(O)C(=O)C(C)=C[C@@H]41)O2
IC50 (Transient receptor potential cation channel subfamily V member 1 (TRPV1, Homo sapiens, UniProt Q8NER1); calcium signal, antagonist, fluorescence): 0.274 µM

O=C(NCCN1CCC2(CC1)C(=O)NCN2Cc1cccnc1)c1c[nH]c2ccccc12
IC50 (Phospholipase D2; enzyme activity, inhibitor): > 20 µM

Cc1c(C(=O)CC2OC(=O)C(Cl)=C2Cl)sc2ccc(Cl)cc12 (centres unmarked)
IC50 (Chymotrypsinogen A (Bos taurus, UniProt P00766); enzyme activity, inhibitor): > 800 µM

O=C(NCCN1CCC2(CC1)C(=O)NCN2Cc1cccnc1)c1cc2cc(F)ccc2[nH]1
IC50 (Phospholipase D2; enzyme activity, inhibitor): 0.12 µM

C/C(=C\C(=O)N[C@@H](CC(C)C)C(=O)N1C[C@H](O)C[C@H]1C(=O)N[C@H](C)CCC(N)=O)c1ccc(OP(=O)(O)O)cc1
IC50 (Signal transducer and activator of transcription 3 (STAT3, Homo sapiens, UniProt P40763); phosphopeptide binding, inhibitor, fluorescence polarization): 0.166 ± 0.01 µM

Cc1ccc(C(C)C)cc1.[Cl][Ru]([Cl])[P](CP(c1ccccc1)c1ccccc1)(c1ccccc1)c1ccccc1
IC50 (Cathepsin B (CTSB, Homo sapiens, UniProt P07858); inhibitor; 10 min preincubation, pH 6, room temperature, together with: Z-FR-AMC): 143 µM

Cn1nnc(-c2ccccc2NC(=O)CCS)n1
IC50 (Metallo-beta-lactamase VIM-2 (VIM-2, Escherichia coli, UniProt Q5U7L7); enzyme activity, inhibitor, fluorescence; with preincubation): 0.0257 µM

CC(=O)NCP(C)(=O)O
IC50 (Urease subunit alpha (Sporosarcina pasteurii, UniProt P41020); enzyme activity, inhibitor, indophenol colorimetric; 20 min, pH 7.0, 37 °C, together with: 50 mM urea): 258 ± 12.7 µM

CC(C)CC(O)(CC(C)C)c1cn(C(=O)N2CCCC2)nn1
IC50 (Acylamino-acid-releasing enzyme (Apeh, Mus musculus, UniProt Q8R146); inhibitor, competitive ABPP; mouse T-cell proteome; 30 min, 37 °C): 0.005 µM

Some of these lines once more:
CNC(=O)C1CCN(c2ccccc2NC(=O)c2ccc(-c3cc(O)ccc3C)c(C)n2)CC1
IC50 (Ephrin type-A receptor 5 (EPHA5, Homo sapiens, UniProt P54756); target engagement in cells, BRET): 0.003 µM

Cc1cc(S(=O)(=O)Nc2ncccn2)c(F)cc1N(C)C1CCN([C@H](C)c2ccccc2)CC1
IC50 (Sodium channel protein type 4 subunit alpha (SCN4A, Homo sapiens, UniProt P35499); sodium current, inhibitor, automated patch clamp; inactivated state protocol): 153 µM

CCOc1ccccc1/C=C\c1nc(O)c([N+](=O)[O-])c(=O)[nH]1
IC50 (Prostatic acid phosphatase (ACP3, Homo sapiens, UniProt P15309); enzyme activity, inhibitor): 13.8 µM

CC[C@H](C)[C@H](NC(=O)[C@@H](N)Cc1ccc(O)cc1)C(=O)N[C@@H](Cc1ccccc1)C(=O)N[C@@H](CC(N)=O)C(=O)N[C@@H](CC(C)C)C(=O)O
IC50 (Mu-type opioid receptor (OPRM1, Homo sapiens, UniProt P35372); binding, radioligand displacement; MCF7; together with: [3H]DAMGO): 0.000143 ± 2e-15 µM

O=C(CCl)c1ccc(F)cc1
IC50 (Fosb/Jund, ΔFosB isoform (Mus musculus, UniProt P13346+P15066); ΔFOSB/JUND DNA binding, fluorescence polarization; 15 min, together with: TMR-cdk5 oligonucleotide): > 200 µM

COc1ccc(S(=O)(=O)n2nc(OC(=O)c3ccccc3)cc2N)cc1
IC50 (Genome polyprotein, NS2B-NS3 protease (dengue virus type 2, UniProt P29990); enzyme activity, inhibitor; 30 min preincubation, together with: 20 µM Bz-nKRR-AMC): 8.5 ± 0.3 µM
